Measured values collected from several papers.
Protocols differ between the studies behind these lines. ± marks the error that the study gave.
T1: DNA aptamer; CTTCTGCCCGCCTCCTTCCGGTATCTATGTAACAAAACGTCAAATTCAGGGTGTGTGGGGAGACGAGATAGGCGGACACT
T2: T-box antiterminator RNA; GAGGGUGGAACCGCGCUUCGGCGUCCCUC
T3: TERRA RNA G4, 5-benzofuranyl uridine in one loop (Homo sapiens); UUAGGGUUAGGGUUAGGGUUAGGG
T4: dsDNA, self-complementary, T9 linker hairpin; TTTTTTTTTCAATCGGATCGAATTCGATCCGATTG
T5: ZTP riboswitch RNA (Fusobacterium ulcerans); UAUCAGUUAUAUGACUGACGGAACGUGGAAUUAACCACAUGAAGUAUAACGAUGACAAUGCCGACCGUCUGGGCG
T6: dsDNA, abasic THF site, position 11; chain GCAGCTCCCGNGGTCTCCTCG; chain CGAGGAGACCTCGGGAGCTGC
T7: RNA riboswitch, SAM-II riboswitch; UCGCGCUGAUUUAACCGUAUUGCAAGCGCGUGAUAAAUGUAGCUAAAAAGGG
T8: RNA G4, parallel dimeric G-quadruplex (Homo sapiens); GGGGCCGGGGCC
Chain of UniProt P08870 (whole entry, looked up): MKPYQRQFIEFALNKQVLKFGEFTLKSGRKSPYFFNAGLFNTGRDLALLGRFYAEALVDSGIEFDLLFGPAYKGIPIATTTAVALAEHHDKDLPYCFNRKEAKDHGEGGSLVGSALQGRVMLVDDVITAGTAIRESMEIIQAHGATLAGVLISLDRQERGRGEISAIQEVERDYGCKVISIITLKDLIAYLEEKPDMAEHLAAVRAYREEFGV

| SMILES | target | test | setting | Kd |
| --- | --- | --- | --- | --- |
| CC(C)=CCC[C@](C)(O[C@@H]1O[C@H](CO[C@@H]2O[C@H](CO)[C@@H](O)[C@H](O)[C@H]2O)[C@@H](O)[C@H](O)[C@H]1O)[C@H]1CC[C@]2(C)[C@@H]1[C@H](O)C[C@@H]1[C@@]3(C)CC[C@H](O[C@@H]4O[C@H](CO)[C@@H](O)[C@H](O)[C@H]4O[C@@H]4O[C@H](CO)[C@@H](O)[C@H](O)[C@H]4O)C(C)(C)[C@@H]3CC[C@]12C | T1, DNA aptamer | fluorescence of eluted aptamer | pH 8.5, room temperature | 5.6 µM |
| CC(=O)c1ccc(NC(=O)OC[C@H]2OC(=O)N[C@@H]2CN2CCN(c3ccccc3)CC2)cc1 | T2, T-box antiterminator RNA | FRET binding titration | 100 nM, 130 min, pH 6.5, 25 °C, NaCl 50 mM, single-site fit, together with: MgCl2 5 mM | 3 µM |
| CN(C)c1ccc(Nc2c3ccc(NC(=O)CCN4CCCC4)cc3nc3cc(NC(=O)CCN4CCCC4)ccc23)cc1 | T3, TERRA RNA G4, 5-benzofuranyl uridine in one loop (Homo sapiens) | fluorescence titration | pH 7.5, 20 °C, KCl 100 mM, apparent, parallel G-quadruplex | 0.294 µM |
| CN1CCN(c2ccc3nc(CN4C(=O)c5ccc6c7c(ccc(c57)C4=O)C(=O)N(Cc4nc5ccc(N7CCN(C)CC7)cc5[nH]4)C6=O)[nH]c3c2)CC1 | T4, dsDNA, self-complementary, T9 linker hairpin | SPR | KCl 100 mM, two-site fit | 55.2 µM |
| NC(=O)c1ncn(C2CCNCC2)c1N | T5, ZTP riboswitch RNA (Fusobacterium ulcerans) | ITC | pH 7.4, 37 °C, KCl 150 mM | 11 µM |
| CN1CCN(c2ccc3nc(-c4ccc(N5C(=O)c6ccc7c8c(ccc(c68)C5=O)C(=O)N(c5ccc(-c6nc8ccc(N9CCN(C)CC9)cc8[nH]6)cc5)C7=O)cc4)[nH]c3c2)CC1 | T4, dsDNA, self-complementary, T9 linker hairpin | SPR | KCl 100 mM, two-site fit | 36.6 µM |
| Cc1nc2nc(N)ccc2c(C)c1C | T6, dsDNA, abasic THF site, position 11 | fluorescence titration | pH 7.0, 20 °C, NaCl 100 mM | 0.111 µM |
| C[S+](CC[C@H](N)C(=O)O)C[C@H]1O[C@@H](n2cnc3c(N)ncnc32)[C@H](O)[C@@H]1O (some centres unmarked) | T7, RNA riboswitch, SAM-II riboswitch | microscale thermophoresis | pH 7.5, KCl 100 mM, single-site fit | 0.138 µM |
| CC(=O)Cc1cc2c(c(O)c1C(=O)O)-c1c(c(O)c3oc4c(O[C@@H]5OC(C(=O)O)=C[C@H](O)[C@H]5O)cccc4c(=O)c3c1O)CC2 | T8, RNA G4, parallel dimeric G-quadruplex (Homo sapiens) | fluorescence intensity titration | pH 6.8, KCl 8 mM, one site with Hill slope | 3000 µM |
| O=P(O)(O)OP(=O)(O)O | Orotate phosphoribosyltransferase (pyrE, Salmonella typhimurium, UniProt P08870) | centrifugal filtration | pH 8.0, wild type, Scatchard extrapolation | 960 ± 120 µM |
| Nc1ncnc2c1ncn2[C@@H]1O[C@H](COP(=O)(O)OP(=O)(O)OP(O)(O)=S)[C@@H](O)[C@H]1O | pan (Methanocaldococcus jannaschii, UniProt Q58576) | binding | 25 °C, high-affinity site | ~0.493 µM |
